Measurements from different studies.
Each numbered part is a random draw from the data of one study; scales do not carry over between parts. Positions count from the first letter of the parent shown.

Set 1 — method: protein-binding microarray; molecule type: double-stranded DNA, one strand shown; medium: in vitro; tested at: 0.8 µM; setting: whole 60-bp probe, no competitor; reading: higher = stronger binding; all sequences stand within: … GTCTTGATTCGCTTGACGCTGCTG
Target: Centromere-binding protein 1, full length, N-terminal tag (CBF1, Saccharomyces cerevisiae, UniProt P17106, residues 1-351)
Sequence of UniProt P17106 (whole entry, looked up): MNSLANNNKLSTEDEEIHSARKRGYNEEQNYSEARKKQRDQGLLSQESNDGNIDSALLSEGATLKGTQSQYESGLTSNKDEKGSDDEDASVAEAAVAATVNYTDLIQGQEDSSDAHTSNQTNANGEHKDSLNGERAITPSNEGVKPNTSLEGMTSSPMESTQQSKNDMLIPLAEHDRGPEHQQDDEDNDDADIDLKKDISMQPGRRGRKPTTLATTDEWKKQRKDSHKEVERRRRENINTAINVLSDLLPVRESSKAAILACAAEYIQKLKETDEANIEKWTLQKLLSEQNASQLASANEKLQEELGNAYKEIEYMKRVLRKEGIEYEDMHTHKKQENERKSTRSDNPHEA
Sequence | fluorescence intensity [a.u.]
GAAAATTGAGATGGTCACATAACGTGAAAACTCTAG | 601
CTACAAAAGAAAAACACCGTGCTGTGTGACCATTTC | 622
CCTAACTACTATAAACACATGGAATAGCTTCGTACA | 570
TGTACGAAGCTATGTTATGTGACTATAGTAGTTAGG | 546
GAACTTATCGCAAAGCGGGTGAGATCAAATGCTTAG | 478
GAAATATAAGATTATCAGATGACTATTTTCTGCTAG | 807
GAATTGCCATACCCGCACACGGGGTTCTTTGAGTAG | 597
CTAGTCTATCTTATAGGCGTGATAGATGTCATTTTC | 632
GAAGAATATATACGCCTGATGACGTACGTTTTATAG | 507
GAATGACTGTGATGATTGGTGATGAACCATATATAG | 556
CTACGCGTGATTCCAAAGGTGATGAAGGGTACATTC | 620
GAATGGCGCGCACGTGACTACAACTGTGGCTGGTAG | 20600
CTATATAAGGAATGACACGAAGAGAGCAGACTATTC | 548
CTATCGCCCCAGTTACACGTGGGGACAATGGCGTTC | 2210
GAAAAAGTTGAGCACCACGATTACGGAATAACATAG | 514
TGTACGAAGCTATACGTGACCAATATAGTAGTTAGG | 920
GAAGAGATGTGCAACAATGTGACCAGTACACGTTAG | 808
CTATATAGCACCGACCATGTGGGCAAATTCGTATTC | 651
GAAGCTTAAATAGGTGACACAAAATGGAGGGCATAG | 539

Set 2 — method: Sort-seq; item: YFP reporter; medium: E. coli; setting: PhoQ-PhoP variant library; with: 10 µM Mg2+; relative to: high Mg2+ state; reading: higher = stronger signaling
Substance: PhoQ, residues 284 288 289 292 302 303 SMMNNA
target | fold induction
PhoP, residues 12 14 15 18 19 VHTVL (Escherichia coli, UniProt P23836) | 8.67
PhoP, residues 12 14 15 18 19 ICWRQ (Escherichia coli, UniProt P23836) | 5.85
PhoP, residues 12 14 15 18 19 TQCLL (Escherichia coli, UniProt P23836) | 10.2

Set 3 — target: CCNF, cyclin fold, Cln2 fusion (human); method: yeast growth competition, sequencing; medium: yeast; setting: strong parent motif; relative to: not given; reading: higher = stronger binding
Starting sequence: SAMHD1 docking peptide (human); ASKSRVQLFKDDP; partner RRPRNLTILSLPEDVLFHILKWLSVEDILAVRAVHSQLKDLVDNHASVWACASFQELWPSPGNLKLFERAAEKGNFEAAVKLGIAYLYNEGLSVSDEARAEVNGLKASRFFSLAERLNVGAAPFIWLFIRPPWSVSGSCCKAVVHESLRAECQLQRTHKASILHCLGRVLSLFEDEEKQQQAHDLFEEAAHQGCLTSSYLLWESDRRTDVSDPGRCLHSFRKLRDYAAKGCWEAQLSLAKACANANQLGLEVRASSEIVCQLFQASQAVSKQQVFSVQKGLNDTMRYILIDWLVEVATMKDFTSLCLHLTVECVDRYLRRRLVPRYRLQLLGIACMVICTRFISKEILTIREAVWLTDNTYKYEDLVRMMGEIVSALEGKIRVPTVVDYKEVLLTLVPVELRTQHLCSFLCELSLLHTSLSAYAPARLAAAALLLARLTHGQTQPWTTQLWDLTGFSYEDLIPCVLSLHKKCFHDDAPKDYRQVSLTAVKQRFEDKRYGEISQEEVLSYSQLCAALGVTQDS
Change | normalised enrichment score
ASGSRVQLFKDDP [K3G] | 0.853
ASKSRVDLFKDDP [Q7D] | -0.369
ASKSRVQLFKDFP [D12F] | 1.27
ASKSRNQLFKDDP [V6N] | 0.144
ASKSDVQLFKDDP [R5D] | -0.501
ASKSRVQLFLDDP [K10L] | 1.26
AEKSRVQLFKDDP [S2E] | 1.79
ASISRVQLFKDDP [K3I] | 1.04
ASKSHVQLFKDDP [R5H] | -0.0267
ASKSRKQLFKDDP [V6K] | 2.64
ASKLRVQLFKDDP [S4L] | 2.19
ASKSRVQCFKDDP [L8C] | -0.443
ASKSSVQLFKDDP [R5S] | -0.114
ASKWRVQLFKDDP [S4W] | 2.29
ASKSRWQLFKDDP [V6W] | 0.0108
ASKSRVQLFKDVP [D12V] | 1.64
ASKSRVQLFKDCP [D12C] | 0.882
ASMSRVQLFKDDP [K3M] | 1.72
ASKSRVQLCKDDP [F9C] | -0.209
ASKSVVQLFKDDP [R5V] | 0.666
ASKSYVQLFKDDP [R5Y] | -0.0352
ADKSRVQLFKDDP [S2D] | 1.63
ASKSRVQLFSDDP [K10S] | 0.799
ASKSRHQLFKDDP [V6H] | 0.111

Set 4 — method: RNA Bind-n-Seq; molecule type: RNA; medium: in vitro; tested at: 200 nM; setting: whole 134-nt RNA, ends assumed; with: 150 mM LiCl; relative to: input library; reading: higher = stronger binding; all molecules: 7-deaza-guanosine replaces G
Target: Ras GTPase-activating protein-binding protein 1, full length (G3BP1, Homo sapiens, UniProt Q13283)
Sequence of UniProt Q13283 (whole entry, looked up): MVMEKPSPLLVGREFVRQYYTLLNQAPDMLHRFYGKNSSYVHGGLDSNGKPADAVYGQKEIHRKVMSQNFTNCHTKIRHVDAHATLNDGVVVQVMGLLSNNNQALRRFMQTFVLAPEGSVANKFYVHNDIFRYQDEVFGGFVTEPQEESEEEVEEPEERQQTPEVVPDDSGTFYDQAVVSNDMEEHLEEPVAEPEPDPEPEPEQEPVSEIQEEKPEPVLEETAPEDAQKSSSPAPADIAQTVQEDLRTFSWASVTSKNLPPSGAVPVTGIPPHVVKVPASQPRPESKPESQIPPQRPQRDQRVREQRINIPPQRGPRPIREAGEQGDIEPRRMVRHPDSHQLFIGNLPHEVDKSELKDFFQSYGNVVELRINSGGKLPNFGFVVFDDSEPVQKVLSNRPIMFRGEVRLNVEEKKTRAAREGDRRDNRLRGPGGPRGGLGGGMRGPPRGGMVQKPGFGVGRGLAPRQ
All sequences stand within: GGGAGUUCUACAGUCCGACGAUC … UGGAAUUCUCGGGUGUCAAGG
Sequence | log2 enrichment
AAGUCCUGUGCUACACAUCGUAUGUACCGAAUCGGUUUUGGGGUUUUGGGUUUUGGAAAGUAUUAUGUUACGCCGUUCGGAUCUGCACUU | -0.526
GCAGGAAGUAAAAACAAAUGGAAAUGCUUCGGAUAGUGGCAGGGGUUGGGGUUGCUAAGGAAAGGGUGGGAUGGGAGUGGGUAAAGAGUU | 0.0156
CUGUGCUACACAUCGUAUGUACCGAAUCGGGGAAAAAGGGGUUUUUGGGGAAAAAAAGGGGAAAGUAUUAUGUUACGCCGUUCGGAUCUG | 0.204
GCAGGAAGUAAAAACAAAUGGAAAUGCUUCGGAUAGUGGCAGGGGUGGGGGUUGAUAAGGAAAGGGUGGGAUGGGAGUGGGUAAAGAGUU | 0.225
AAGUCCUGUGCUACACAUCGUAUGUACCGAAUCGGGGAGGGGAAAAAGGGGUGGGGAAAGUAUUAUGUUACGCCGUUCGGAUCUGCACUU | 0.561
CACAGACAACACGCACCCACACAGACACAGAGGGAAGGGGUUGGGAUGGGGACAGGGUGCACAGCAGGGCGGGAUAGGACCCCAGCCCCU | 0.785
UGUGAGAUUAAACUUGCCCCCAAACGAUCUCGUUUGGAGACUAGAGCUGGAGAAGAAGAUGAAGGAGAAGAGGAUUCUGAUUCUGAUUAU | -1.37
UCCUGUGCUACACAUCGUAUGUACCGAAUCGGGGAAAAAGGGGUUUGGGGAAAAAGGGGAAAGUAUUAUGUUACGCCGUUCGGAUCUGCA | -0.991

Set 5 — method: DHFR PCA, deep sequencing; medium: yeast; with: (+)-ABA 1.4 µM; relative to: wild-type fitted maximum; reading: higher = stronger binding
Target: ABI1, truncated, D143A, DHFR fusion (Arabidopsis thaliana)
Setting: methotrexate growth selection, single substitutions
Starting sequence: PYL1, truncated, DHFR fusion (Arabidopsis thaliana); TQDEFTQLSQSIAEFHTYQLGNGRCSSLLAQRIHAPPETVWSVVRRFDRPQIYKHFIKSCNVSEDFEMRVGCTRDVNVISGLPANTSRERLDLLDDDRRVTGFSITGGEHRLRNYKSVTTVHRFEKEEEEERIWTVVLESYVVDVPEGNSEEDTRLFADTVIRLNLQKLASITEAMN
Change | relative binding score [%]
V40A | 18.8
S171E | 76.7
D97I | 45.8
I33R | 10.2
W134T | 75.1
F47S | -2.37
R123T | 54.6
R46D | -28.2
L82Y | 28.8
V43N | -16.6
D153C | -8.9
R132W | 21.3
V121F | -1.09
W134S | 73.7
R90T | 25.6

Repeated from above (set 1):
Sequence | fluorescence intensity [a.u.]
CTACAAAAGAAAAACACCGTGCTGTGTGACCATTTC | 622
TGTACGAAGCTATGTTATGTGACTATAGTAGTTAGG | 546
GAAAAAGTTGAGCACCACGATTACGGAATAACATAG | 514
CTACGCGTGATTCCAAAGGTGATGAAGGGTACATTC | 620
CTAGTCTATCTTATAGGCGTGATAGATGTCATTTTC | 632
GAATTGCCATACCCGCACACGGGGTTCTTTGAGTAG | 597
CCTAACTACTATAAACACATGGAATAGCTTCGTACA | 570
GAATGACTGTGATGATTGGTGATGAACCATATATAG | 556
GAACTTATCGCAAAGCGGGTGAGATCAAATGCTTAG | 478
